Experimental data collected from several papers.
± gives the spread as reported.

SMILES | tested on | assay | test system | setting | how to read | measurement | value
Cn1c(-c2ccc(C(N)=O)cc2F)nnc1C(C)(C)Oc1c(F)cc(Cl)cc1F | – | – | elderly non-Japanese subjects, plasma | oral, 20 mg single dose, day 1, median | – | half-life | 15.5 h
CC(C)[C@H](NC(=O)[C@@H]1CCCN1C(=O)[C@H](CCCNC(=N)N)NC(=O)[C@H](CS)NC(=O)[C@H](Cc1c[nH]c2ccccc12)NC(=O)[C@H](CCCNC(=N)N)NC(=O)[C@@H](Cc1ccccc1)NC(=O)[C@H](Cc1c[nH]cn1)NC(=O)[C@H](CCC(=O)O)NC(=O)[C@H](CS)NC(=O)[C@H](CS)NC(=O)[C@H](CCCCN)NC(=O)[C@@H]1CC(=O)N[C@@H](CCCNC(=N)N)C(=O)N[C@@H](C)C(=O)N[C@@H](CC(=O)O)C(=O)N[C@H](Cc2ccc(O)cc2)C(=O)N1)C(N)=O [technetium-99m labelled] | – | – | C57 mice, kidneys | intravenous, 0.037 MBq, 0.5 h | – | tissue uptake | 127 ± 17.3 %ID/g
C#C[C@]1(COP(=O)(O)OP(=O)(O)OP(=O)(O)O)O[C@@H](n2cnc3c(N)nc(F)nc32)C[C@@H]1O | human PBMC tumour model | – | host not given, plasma | oral, 15 mg, single dose, fasted | – | Tmax | 6 h
C[N+]1(CC(=O)OC2CCCCCCCCCCC2)CCNCC1.[I-] | – | metabolic stability | human, liver microsomes | 1 µM, pH 7.4 | – | half-life | 0.0667 h
CCCC1O[C@@H]2C[C@H]3[C@@H]4CCC5=CC(=O)C=C[C@]5(C)[C@H]4[C@@H](O)C[C@]3(C)[C@]2(C(=O)CO)O1 (stereo partly shown) | – | – | CD1 mice, plasma | subcutaneous, 0.2 mg/kg | – | half-life | 1 h
CNCc1ccc(-c2[nH]c3cc(F)cc4c3c2CCNC4=O)cc1 | – | – | human, plasma | oral, 40 mg once daily, steady state, median | – | half-life | 9.23 h
N#C[C@@]1(c2ccc3c(N)ncnn23)O[C@H](CO)[C@@H](O)[C@H]1O | – | metabolic stability | human, liver microsomes | 1 µM, pH 7.4 | – | half-life | 12.2 h
CCc1ccc(C(=O)Nc2cc3nc(C4CCCCC4)[nH]c3cc2N(C)C)cc1 | Vero | cytotoxicity, Alamar Blue | – | 3 days, 37 °C | – | IC50 | > 100 µg/mL
CC(C)(C)c1cc(C(C)(C)C)c(NC(=O)c2c[nH]c3ccccc3c2=O)cc1O | Calu-3 | – | – | 4 h, basal to apical transport | – | amount remaining in donor | 57 to 71%
Cc1nnc(S(=O)(=O)CC(=O)C23CC4CC(CC(C4)C2)C3)s1 | – | metabolic stability | human, liver microsomes | – | – | half-life | 0.5 to 0.667 h
c1cncc(CN2CCC(n3ncc4c(N5CCOCC5)nc(-c5ccc6[nH]ccc6c5)nc43)CC2)c1 | NIH3T3 in PANC/NIH microtissues | fibroblast toxicity | – | chronic toxicity, unit not given | relative to: AC50 ATP over AC50 NanoLUC, day 7 | therapeutic window | 1.24
CC[C@H](C)[C@@H]1NC(=O)[C@H](Cc2ccc(O)cc2)NC(=O)[C@@H](N)CSSC[C@@H](C(=O)N2CCC[C@H]2C(=O)N[C@@H](CC(C)C)C(=O)NCC(N)=O)NC(=O)[C@H](CC(N)=O)NC(=O)[C@H](CCC(N)=O)NC1=O | – | microdialysis, radioimmunoassay | C57BL/6J male mice, wild type, amygdala extracellular fluid | intranasal, 12 µg, time to half of Cmax | – | half-life | 0.432 ± 0.143 h
CCC[N+]1(CC(=O)OC2CCCCCCCCCCC2)CCCCC1.[I-] | – | metabolic stability | human, liver microsomes | 1 µM, pH 7.4 | – | half-life | < 0.0333 h
CN1CCN(c2ccc(Nc3ncc4cc(C#N)c(=O)n(C5CCCC5)c4n3)cc2)CC1 | – | – | NIH Swiss nude mice, intracerebral U87 tumour, plasma | intravenous, 25 mg/kg, with: gefitinib 200 mg/kg oral 1 h before | – | half-life | 2.3 h
CCCC[C@H](NC(C)=O)C(=O)N[C@H]1CCC(=O)NC[C@@H](C(=O)N[C@@H](Cc2c[nH]c3ccccc23)C(N)=O)NC(=O)[C@H](CCCNC(=N)N)NC(=O)[C@@H](Cc2ccccc2)NC(=O)[C@H](Cc2c[nH]cn2)NC1=O | – | – | beagle dog, male, plasma | subcutaneous, 8.0 mg/kg daily, day 1 | – | AUC(0-last) | 1280 ng·h/mL
C[N+]1(CC(=O)OC2CCCCCCC2)CCCCC1.[I-] | – | metabolic stability | human, liver microsomes | 1 µM, pH 7.4 | – | half-life | > 1 h
OCCc1ccc(O)cc1 | – | – | Balb/c tumour-bearing mice, plasma | oral, 109.2 mg/kg SNZ | – | half-life | 0.66 h
C[N+]1(CC(=O)OC2CCCCCCCCCCC2)CCC(Cc2ccccc2)CC1.[I-] (stereo not shown) | – | metabolic stability | human, liver microsomes | 1 µM, pH 7.4 | – | half-life | < 0.0333 h
CCCCCCCCCCCCCCCCCCOP(=O)([O-])OC1CC[N+](C)(C)CC1 | – | – | rhesus monkey, male, cerebrospinal fluid | oral, 7 mg/kg, single dose, median of 3 | – | half-life | 277 h

Repeated from above:
SMILES | tested on | assay | test system | setting | how to read | measurement | value
C[N+]1(CC(=O)OC2CCCCCCCCCCC2)CCC(Cc2ccccc2)CC1.[I-] (stereo not shown) | – | metabolic stability | human, liver microsomes | 1 µM, pH 7.4 | – | half-life | < 0.0333 h
CC[C@H](C)[C@@H]1NC(=O)[C@H](Cc2ccc(O)cc2)NC(=O)[C@@H](N)CSSC[C@@H](C(=O)N2CCC[C@H]2C(=O)N[C@@H](CC(C)C)C(=O)NCC(N)=O)NC(=O)[C@H](CC(N)=O)NC(=O)[C@H](CCC(N)=O)NC1=O | – | microdialysis, radioimmunoassay | C57BL/6J male mice, wild type, amygdala extracellular fluid | intranasal, 12 µg, time to half of Cmax | – | half-life | 0.432 ± 0.143 h
CC(C)(C)c1cc(C(C)(C)C)c(NC(=O)c2c[nH]c3ccccc3c2=O)cc1O | Calu-3 | – | – | 4 h, basal to apical transport | – | amount remaining in donor | 57 to 71%
